Experimental data gathered from unrelated publications.
Every numbered part comes from another study and shows a few of its results, in no order. Substitutions count along the parent as printed.

Block 1
Target: ABI1, truncated, D143A, DHFR fusion (Arabidopsis thaliana)
Method: DHFR PCA, deep sequencing
Matrix: yeast
Notes: methotrexate growth selection, single substitutions
Together with: (+)-ABA 1.4 µM
Baseline: wild-type fitted maximum
Direction: higher = stronger binding
Endpoint: relative binding score
Parent: PYL1, truncated, DHFR fusion (Arabidopsis thaliana); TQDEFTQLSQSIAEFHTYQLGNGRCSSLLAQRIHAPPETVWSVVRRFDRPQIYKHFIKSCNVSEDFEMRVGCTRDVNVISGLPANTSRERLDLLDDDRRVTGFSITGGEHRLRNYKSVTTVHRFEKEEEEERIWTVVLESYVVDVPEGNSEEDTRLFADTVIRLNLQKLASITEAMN; partner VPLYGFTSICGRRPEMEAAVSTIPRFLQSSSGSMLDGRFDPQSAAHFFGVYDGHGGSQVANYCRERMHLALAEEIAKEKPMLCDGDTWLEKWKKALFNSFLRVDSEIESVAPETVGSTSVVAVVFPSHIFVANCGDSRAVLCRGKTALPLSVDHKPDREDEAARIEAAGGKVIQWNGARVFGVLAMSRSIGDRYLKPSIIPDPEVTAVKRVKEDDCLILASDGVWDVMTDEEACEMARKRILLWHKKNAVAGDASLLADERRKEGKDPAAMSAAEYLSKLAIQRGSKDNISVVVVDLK
C25T: 56%
R111S: 1.62%
I172R: -10.2%
A13C: 13.8%
T86M: 35.6%
E67H: 42.5%
G23Q: 27.5%
D95S: -1.75%
I33C: 28.9%
H122I: -6.01%
G81H: 1.38%
R163K: 64.3%
E127R: 57.9%
N149A: 47.3%
E174H: 21%
L29C: 25.6%
A30R: 33.9%
T120N: -2.8%
N77H: 73.2%
A84W: 87.5%
L164M: 71.4%
G71H: -1.36%

Block 2
Target: PABPC1L2, full length, GST fusion (mouse, UniProt A0ABA7IW68)
Method: RNAcompete
Form: RNA
Matrix: in vitro
Tested at: 20 nM
Notes: 7-mer, probes averaged, single round
Baseline: mean of 7-mers
Direction: higher = stronger binding
Endpoint: 7-mer Z-score
Target sequence (chain): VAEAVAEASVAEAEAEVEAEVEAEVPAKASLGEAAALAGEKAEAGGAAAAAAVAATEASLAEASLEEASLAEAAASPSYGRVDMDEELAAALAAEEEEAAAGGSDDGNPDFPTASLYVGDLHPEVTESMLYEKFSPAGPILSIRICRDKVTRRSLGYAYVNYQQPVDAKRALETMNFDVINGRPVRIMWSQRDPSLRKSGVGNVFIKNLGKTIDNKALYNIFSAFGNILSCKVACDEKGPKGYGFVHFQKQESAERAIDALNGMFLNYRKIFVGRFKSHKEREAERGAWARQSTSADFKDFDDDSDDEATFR
GGGAGCC: -0.0554
CGAUCUA: -0.0718
AUCGAUG: 0.0515
GUUUCCA: -0.324
GAUGCUC: -0.324
GCCAUUU: -0.229
CUAAGCA: -0.148
CACCAUA: 0.215
UAUGGUU: -0.209
UACCCGA: -0.153
GCGCGGG: 0.148
AGGGCAA: 0.678
CGCUUGG: -0.166
UCCCAAA: 0.334
AUUUGAG: -0.0718
AACCGGG: 0.171
CCCUUGG: -0.246
GGUAAUC: 0.0225
CCUGGAU: -0.103
UGGCUGA: 0.00436
CGCGAGA: -0.112
AGACAGA: 0.0623
UGCUUUC: -0.393

Block 3
Target: CEP164, C-terminal peptide (human)
Method: DHFR complementation, deep sequencing
Matrix: yeast
Notes: single substitutions, model-inferred values
Baseline: wild type
Direction: higher = weaker binding
Endpoint: binding free energy change
Parent: PDZK1, PDZ domain 2 (human); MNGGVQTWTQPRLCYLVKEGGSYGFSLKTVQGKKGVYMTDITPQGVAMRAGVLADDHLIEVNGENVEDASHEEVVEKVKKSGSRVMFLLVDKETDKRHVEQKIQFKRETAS; partner HNRVKVYRF
R49A: 0.241 kcal/mol
V61A: 0.58 kcal/mol
M48L: 0.449 kcal/mol
V36T: -0.435 kcal/mol
D91C: 0.0717 kcal/mol
T7L: 0.0498 kcal/mol
G63L: 0.707 kcal/mol
E64W: 0.174 kcal/mol
N65R: 0.211 kcal/mol
K79W: 0.452 kcal/mol
A47K: 1.66 kcal/mol
E76W: 0.0626 kcal/mol
G63W: 0.0959 kcal/mol
V78H: 1.79 kcal/mol
Q6N: -0.0245 kcal/mol
D55A: 0.502 kcal/mol
M48R: 0.0371 kcal/mol
G35A: 0.202 kcal/mol
G24M: 1.3 kcal/mol
T39N: 0.637 kcal/mol
L13R: -0.204 kcal/mol
H57M: -0.455 kcal/mol
A54V: 0.0841 kcal/mol
H71M: -0.391 kcal/mol

Block 4
Target: Fragile X messenger ribonucleoprotein 1, C-terminal low-complexity region (Fmr1, Mus musculus, UniProt P35922)
Method: RNA Bind-n-Seq
Form: RNA
Matrix: in vitro
Tested at: 200 nM
Notes: whole 134-nt RNA, ends assumed
Together with: 150 mM KCl
Baseline: input library
Direction: higher = stronger binding
Endpoint: log2 enrichment
Constant ends, left off below: GGGAGUUCUACAGUCCGACGAUC … UGGAAUUCUCGGGUGUCAAGG
UGGGAGGUGGCUUUUGUUUAUUUUUUUAGCUCAUUUCCAGGGGUGGGAAUUUUUUUUUAAUAUGUGUCAUGAAUAAAGUUGUUUUUGAAA: 0.889
UGGCCCUGGUGGCAUGCGGGGAGGAAGAGGUGGCCUCAUGGAUCUUGGUGGUCCCGGUGGAAUGUUCAGAGGUGGCCGUGGUGGAGACAG: 0.0302
CCUCUGGACGAGACCAGCCAGAUGAGCGACCUCCCGGUGAAGGUGAUCCACGUGGAGAGUGGGAAGAUCCUCACAGGCACAGAUGCCCCC: 0.0887
CCUGUGCUACACAUCGUAUGUACCGAAUCGGUUUUUUUGGUUUUUUUGGGGUUUUUUUGGGAAAGUAUUAUGUUACGCCGUUCGGAUCUG: -0.894
UCAAGUCCUGUGCUACACAUCGUAUGUACCGAAUCGGAAAAAGGAAAAAGGAGGAAAGUAUUAUGUUACGCCGUUCGGAUCUGCACUUCC: -0.469
UAACUUUAGAAGAGGAUCUGAUGGAUAUGGCAGUGGACGUGGAUUUGGGGAUGGCUAUAAUGGGUAUGGAGGAGGACCUGGAGGUGGCAA: 0.34
CUCAAGUCCUGUGCUACACAUCGUAUGUACCGAAUCGGGCCGGGCCGGGCCGGGAAAGUAUUAUGUUACGCCGUUCGGAUCUGCACUUCC: 0.218
AGUCCUGUGCUACACAUCGUAUGUACCGAAUCGGGGUUUUGGGUUUUGGGGUUUUGGGAAAGUAUUAUGUUACGCCGUUCGGAUCUGCAC: 0.626
CUGUGCUACACAUCGUAUGUACCGAAUCGGUUUUUUUGGGGUUUUUUUGGUUUUUUUGGGGAAAGUAUUAUGUUACGCCGUUCGGAUCUG: -0.927

Block 5
Target: CCNF, cyclin fold, Cln2 fusion (human)
Method: yeast growth competition, sequencing
Matrix: yeast
Notes: strong parent motif
Baseline: not given
Direction: higher = stronger binding
Endpoint: normalised enrichment score
Parent: E2F7 docking peptide (human); SSAQRRLEIPSGG; partner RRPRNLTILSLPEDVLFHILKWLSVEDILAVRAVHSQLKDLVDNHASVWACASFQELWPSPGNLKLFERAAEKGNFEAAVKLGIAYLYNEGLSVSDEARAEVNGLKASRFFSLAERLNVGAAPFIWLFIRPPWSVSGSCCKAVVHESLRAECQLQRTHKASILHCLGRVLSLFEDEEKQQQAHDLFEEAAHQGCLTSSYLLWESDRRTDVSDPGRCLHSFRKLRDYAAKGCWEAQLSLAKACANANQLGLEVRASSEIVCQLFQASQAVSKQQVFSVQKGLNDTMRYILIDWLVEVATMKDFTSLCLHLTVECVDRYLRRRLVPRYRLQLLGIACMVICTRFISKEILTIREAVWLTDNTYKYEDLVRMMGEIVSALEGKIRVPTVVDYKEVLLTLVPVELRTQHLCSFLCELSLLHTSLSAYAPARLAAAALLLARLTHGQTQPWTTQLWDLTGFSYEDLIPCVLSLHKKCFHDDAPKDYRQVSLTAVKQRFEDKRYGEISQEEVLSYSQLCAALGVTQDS
SSAQRALEIPSGG [R6A]: -1.09
SSAQRRLEFPSGG [I9F]: 7.75
SSAQRRLEIPSGA [G13A]: 3.4
SSAARRLEIPSGG [Q4A]: 3.06
SSAQRRLAIPSGG [E8A]: 1.55
SSAQRRLEIPSAG [G12A]: 2.78
SSAQKRLEFPSGG [R5K I9F]: 5.88
SSAQARAEIPSGG [R5A L7A]: -0.0478
SSAQRRLEIASGG [P10A]: 1.48
SSAQRRLELPSGG [I9L]: 4.03

Further values, each from its own experiment
PhoQ, residues 284 288 289 292 302 303 SLCLSL
fold induction (PhoP, residues 12 14 15 18 19 NYFTV (Escherichia coli, UniProt P23836); Sort-seq, measured: YFP reporter; E. coli; PhoQ-PhoP variant library, together with: 10 µM Mg2+; baseline: high Mg2+ state, higher = stronger signaling): 9
